Published values gathered from unrelated publications.
Each line is one published result; not all experiments were run side by side. ± marks the error that the study gave.

| Structure (SMILES) | test | test system | conditions | scale | measurement | value |
| --- | --- | --- | --- | --- | --- | --- |
| CCCCCCCCCC(=O)NCCCC[C@@H](NC(=O)[C@@H](CC(C)C)NC(=O)[C@@H](CCCCN)NC(=O)[C@@H](CCCCNC(=O)[C@@H](CC(C)C)NC(=O)[C@@H](CCN)NC(=O)[C@@H](CCCCNC(=O)[C@@H](Cc1ccccc1)NC(=O)[C@H](N)CCCN)NC(=O)[C@@H](Cc1ccccc1)NC(=O)[C@H](N)CCCN)NC(=O)[C@@H](CC(C)C)NC(=O)[C@@H](CCN)NC(=O)[C@@H](CCCCNC(=O)[C@@H](Cc1ccccc1)NC(=O)[C@H](N)CCCN)NC(=O)[C@@H](Cc1ccccc1)NC(=O)[C@H](N)CCCN)C(N)=O | carboxyfluorescein release | EYPC vesicles | 10 µg/mL, 250 s, pH 7.4, 25 °C | baseline: Triton X-100 | leakage | 5% |
| COc1ccc(/C=C/c2cc(O)cc(O)c2)cc1O | – | – | concentration not given | – | initial DPPH scavenging rate | 1.27 µmol/L/s |
| CC[C@H]1[C@@H](O)[C@@H]2[C@H](CC[C@]3(C)[C@@H]([C@H](C)CCOS(=O)(=O)[O-])CC[C@@H]23)[C@@]2(C)CC[C@@H](O)C[C@@H]12.[Na+] | – | ob/ob NASH mouse model | oral, 10 mg/kg once daily, before treatment, baseline of 8 week study | – | body weight | 49.4 ± 1.3 g |
| [2H]C([2H])([2H])C(c1cc2nnc(-c3cc(F)ccc3F)n2nc1OCc1ncnn1C)(C([2H])([2H])[2H])C([2H])([2H])[2H] | – | amygdala-kindled Wistar rats, amygdala | oral, 100 mg/kg, 2 h before stimulation | baseline: baseline | afterdischarge duration change | -78% |
| CCCC[C@H](NC(=O)[C@@H](NC(=O)[C@H](CC(=O)O)NC(=O)[C@H](CCC(N)=O)NC(=O)[C@H](CC(C)C)NC(=O)[C@H](CC(C)C)NC(=O)[C@H](CCCN)NC(=O)[C@H](CCCNC(=N)N)NC(=O)[C@H](C)NC(=O)[C@H](CO)NC(=O)[C@H](CC(C)C)NC(=O)[C@H](CCC(N)=O)NC(=O)[C@H](CC)NC(=O)[C@H](CC(C)C)NC(=O)[C@@H](NC(=O)[C@H](CCCN)NC(=O)[C@H](CCCNC(=N)N)NC(=O)[C@H](Cc1ccc(O)cc1)NC(=O)[C@H](CO)NC(=O)[C@H](CC(N)=O)NC(=O)[C@@H](NC(=O)[C@H](Cc1ccccc1)NC(=O)[C@@H](NC(=O)[C@H](C)NC(=O)[C@H](CC(=O)O)NC(=O)[C@@H](C)NC(=O)[C@H](Cc1ccc(O)cc1)NC)[C@@H](C)CC)[C@@H](C)O)C(C)C)[C@@H](C)CC)C(=O)N[C@@H](CC(=O)O)C(=O)NCCCCNC(=N)N | GH release | rat, male, serum | subcutaneous, 3 µg/kg, 30 min | baseline: reference GHRH agonist JI-38 | relative potency | 1.18 |
| Cc1cc(O)c(C=O)c2c1C(=O)Oc1c(CO)c(O)c3c(c1O2)C(O)OC3=O (centres unmarked) | – | rat, male, streptozotocin-induced diabetes, cauda epididymis | 10 mg/kg, 9 weeks | – | sperm abnormalities | 6.33 ± 0.82% |
| O=C1/C(=C/c2ccc(O)c(O)c2)Oc2cc(O)c(-c3ccc(O)c(O)c3)c(O)c21 | ABTS scavenging, absorbance | – | – | – | EC50 | 880 µM |
| CCCCCN(CCCCC)C(C)C(=O)c1cc(C)c2ccc3cc(C(C)C)ccc3c2c1.Cl (centres unmarked) | – | humanized PD-1 mouse, MC38-hPD-L1 tumour | intraperitoneal, 10 mg/kg, 10 days | baseline: vehicle | tumour volume reduction | 93.6% |
| Cc1nc(C)c(C=[N+]([O-])C(C)(C)C)nc1C | stereological counting | mouse MPTP model, substantia nigra | 10 mg/kg | increase | TH-positive neuron count | 17% |
| CNC(=O)N(C)c1ccc(C(=O)Nc2ccc(OC)cc2C(=O)Nc2ccc(Cl)cn2)cc1 | – | human plasma | – | – | concentration doubling prothrombin time | 30 ± 6 µM |
| CC(C)[C@H](CO)Nc1nc(Nc2ccc(C(=O)NCCNS(=O)(=O)c3cccc4c(N(C)C)cccc34)c(Cl)c2)c2ncn(C(C)C)c2n1 | – | ND2-SmoA1 mice, medulloblastoma tumour | dose not given | – | PCNA-positive cells | 38.3 ± 12.4% |
| COC1OC(C)C(OS(=O)(=O)O)C(OC2OC(C)C(OS(=O)(=O)O)C(OC3OC(C)C(OS(=O)(=O)O)C(OC4OC(C)C(OS(=O)(=O)O)C(OC5OC(C)C(OS(=O)(=O)O)C(OC6OC(C)C(OS(=O)(=O)O)C(OC7OC(C)C(OS(=O)(=O)O)C(OC8OC(C)C(OS(=O)(=O)O)C(OC9OC(C)C(OS(=O)(=O)O)C(OC%10OC(C)C(OS(=O)(=O)O)C(OS(=O)(=O)O)C%10OS(=O)(=O)O)C9OS(=O)(=O)O)C8OS(=O)(=O)O)C7OS(=O)(=O)O)C6OS(=O)(=O)O)C5OS(=O)(=O)O)C4OS(=O)(=O)O)C3OS(=O)(=O)O)C2OS(=O)(=O)O)C1OS(=O)(=O)O (centres unmarked) | clotting time | human plasma | – | – | concentration doubling APTT | 14.5 µg/mL |
| COc1ccc2c(c1)c(CC(=O)OCOC(C)=O)c(C)n2C(=O)c1ccc(Cl)cc1 | hot plate test | BALB/c mice | 75 mg/kg, 0 min | – | latency of nociceptive response | 10.8 ± 0.59 s |
| Sc1nnc(-c2cc(Cl)ccc2Cl)o1 | superoxide scavenging, pyrogallol | – | – | – | IC50 | 141.9 ± 1.2 µM |
| CCCC[C@H](NC(=O)[C@@H](NC(=O)[C@H](CC(=O)O)NC(=O)[C@H](CCC(N)=O)NC(=O)[C@H](CC(C)C)NC(=O)[C@H](CC(C)C)NC(=O)[C@H](CCCN)NC(=O)[C@H](CCCNC(=N)N)NC(=O)[C@H](C)NC(=O)[C@H](CO)NC(=O)[C@H](CC(C)C)NC(=O)[C@H](CCC(N)=O)NC(=O)[C@H](CC)NC(=O)[C@H](CC(C)C)NC(=O)[C@@H](NC(=O)[C@H](CCCN)NC(=O)[C@H](CCCNC(=N)N)NC(=O)[C@H](Cc1ccc(O)cc1)NC(=O)[C@H](CO)NC(=O)[C@H](CCC(N)=O)NC(=O)[C@@H](NC(=O)[C@H](Cc1ccccc1)NC(=O)[C@@H](NC(=O)[C@H](C)NC(=O)[C@H](CC(=O)O)NC(=O)[C@@H](C)NC(=O)[C@H](Cc1ccc(O)cc1)N(C)C(C)=O)[C@@H](C)CC)[C@@H](C)O)C(C)C)[C@@H](C)CC)C(=O)N[C@@H](CC(=O)O)C(=O)NCCCCNC(=N)N | GH release | rat, male, serum | subcutaneous, 3 µg/kg, 30 min | baseline: reference GHRH agonist JI-38 | relative potency | 0.3 |
| C[C@@H](O)[C@H](N)C(=O)N1CCC[C@H]1C(=O)NCC(=O)NCC(=O)O | diketopiperazine formation, Arrhenius plot, ESI-MS | 1-propanol | 70, 80, 90 °C, 0.5% acetic acid | – | activation energy | 17.7 ± 2.15 kcal/mol |
| CCCCCCCCCCCCCCCC(=O)NCCCC[C@H](NC(=O)[C@H](CCC(=O)O)NC(=O)[C@H](Cc1ccc(O)cc1)NC(=O)[C@H](CCC(=O)O)NC(=O)COCC(=O)NCCCOCCOCCOCCCNC(=O)[C@H](Cc1c[nH]c2ccccc12)NC(=O)[C@H](CCCCN)NC(=O)[C@H](C)NC(=O)[C@H](CCCCNC(=N)N)NC(=O)[C@H](CCC(N)=O)NC(=O)[C@H](Cc1c[nH]cn1)NC(=O)[C@H](CCSC)NC(=O)[C@H](CC(C)C)NC(=O)[C@H](CCC(N)=O)NC(=O)[C@@H](NC(=O)[C@H](CCC(=O)O)NC(=O)C(C)(C)NC(=O)[C@@H](NC(=O)C(C)(C)N)C(C)C)[C@@H](C)CC)C(=O)N[C@@H](CCC(=O)O)C(=O)N[C@@H](Cc1ccc(O)cc1)C(=O)N[C@@H](CCC(=O)O)C(N)=O | item: Ca2+ | CD-1 mice, blood | iv, 10 nmol/kg | – | duration of calcemic response | ≥ 7 h |
| COc1cc(Cn2ccc3cc(C(=O)NCC45CC6CC(CC(C6)C4)C5)ccc32)ccc1C(=O)NO | immunohistochemistry | 5xFAD mice, brain | intraperitoneal, 10 mg/kg daily, 2 months | baseline: vehicle | amyloid plaque size | decreased |
| CCCC[C@H](NC(=O)[C@@H](NC(=O)[C@H](CC(=O)O)NC(=O)[C@H](CCC(N)=O)NC(=O)[C@H](CC(C)C)NC(=O)[C@H](CC(C)C)NC(=O)[C@H](CCCN)NC(=O)[C@H](CCCNC(=N)N)NC(=O)[C@H](C)NC(=O)[C@H](CO)NC(=O)[C@H](CC(C)C)NC(=O)[C@H](CCC(N)=O)NC(=O)[C@H](CC)NC(=O)[C@H](CC(C)C)NC(=O)[C@@H](NC(=O)[C@H](CCCN)NC(=O)[C@H](CCCNC(=N)N)NC(=O)[C@H](Cc1ccc(O)cc1)NC(=O)[C@H](CO)NC(=O)[C@H](CCC(N)=O)NC(=O)[C@@H](NC(=O)[C@H](Cc1ccccc1)NC(=O)[C@@H](NC(=O)[C@H](C)NC(=O)[C@H](CC(=O)O)NC(=O)[C@H](C)NC(=O)CCc1ccc(O)cc1)[C@@H](C)CC)[C@@H](C)O)C(C)C)[C@@H](C)CC)C(=O)N[C@@H](CC(=O)O)C(=O)N[C@@H](CCCNC(=N)N)C(=O)NC | GH release | rat, male, serum | subcutaneous, 3 µg/kg, 30 min | baseline: reference GHRH agonist JI-38 | relative potency | 1.09 |
| O=C1O/C(=C\c2cc(F)ccc2OCCN2CCOCC2)c2cc(Cc3cccc(F)c3)[nH]c(=O)c21 | Western blot | rat, bleomycin-induced pulmonary fibrosis, lung | intraperitoneal, 5.0 mg/kg twice daily, 28 days | – | α-SMA level | decreased |
| CCCC[C@H](NC(=O)[C@@H](NC(=O)[C@H](CC(=O)O)NC(=O)[C@H](CCC(N)=O)NC(=O)[C@H](CC(C)C)NC(=O)[C@H](CC(C)C)NC(=O)[C@H](CCCN)NC(=O)[C@H](CCCNC(=N)N)NC(=O)[C@H](C)NC(=O)[C@H](CO)NC(=O)[C@H](CC(C)C)NC(=O)[C@H](CCC(N)=O)NC(=O)[C@H](CC)NC(=O)[C@H](CC(C)C)NC(=O)[C@@H](NC(=O)[C@H](CCCN)NC(=O)[C@H](CCCNC(=N)N)NC(=O)[C@H](Cc1ccc(O)cc1)NC(=O)[C@H](CO)NC(=O)[C@H](CCC(N)=O)NC(=O)[C@@H](NC(=O)[C@H](Cc1ccccc1)NC(=O)[C@@H](NC(=O)[C@H](C)NC(=O)[C@H](CC(=O)O)NC(=O)[C@@H](C)NC(=O)[C@H](Cc1ccc(O)cc1)NC)[C@@H](C)CC)[C@@H](C)O)C(C)C)[C@@H](C)CC)C(=O)N[C@@H](CC(=O)O)C(=O)NCCCCNC(=N)N | GH release | rat, male, serum | subcutaneous, 3 µg/kg, 30 min | baseline: reference GHRH agonist JI-38 | relative potency | 1.2 |
| N[C@@H](Cc1c[nH]cn1)C(=O)N1CCC[C@H]1C(=O)NCC(=O)NCC(=O)O | diketopiperazine formation, Arrhenius plot, ESI-MS | 1-propanol | 70, 80, 90 °C, 0.5% acetic acid | – | activation energy | 20.6 ± 0.717 kcal/mol |
| CCCC[C@H](NC(=O)[C@@H](NC(=O)[C@H](CC(=O)O)NC(=O)[C@H](CCC(N)=O)NC(=O)[C@H](CC(C)C)NC(=O)[C@H](CC(C)C)NC(=O)[C@H](CCCN)NC(=O)[C@H](CCCNC(=N)N)NC(=O)[C@H](C)NC(=O)[C@H](CO)NC(=O)[C@H](CC(C)C)NC(=O)[C@H](CCC(N)=O)NC(=O)[C@H](CC)NC(=O)[C@H](CC(C)C)NC(=O)[C@@H](NC(=O)[C@H](CCCN)NC(=O)[C@H](CCCNC(=N)N)NC(=O)[C@H](Cc1ccc(O)cc1)NC(=O)[C@H](CO)NC(=O)[C@H](CCC(N)=O)NC(=O)[C@@H](NC(=O)[C@H](Cc1c(F)c(F)c(F)c(F)c1F)NC(=O)[C@@H](NC(=O)[C@H](C)NC(=O)[C@H](CC(=O)O)NC(=O)[C@@H](C)NC(=O)[C@H](Cc1ccc(O)cc1)NC)[C@@H](C)CC)[C@@H](C)O)C(C)C)[C@@H](C)CC)C(=O)N[C@@H](CC(=O)O)C(=O)N[C@@H](CCCNC(=N)N)C(=O)NC | GH release | rat, male, serum | subcutaneous, 3 µg/kg, 15 min | baseline: reference GHRH agonist JI-38 | relative potency | 1.54 |
| CC1=C(C2=C(C)C(=O)c3c(cc(O)c(O)c3Cc3ccccc3)C2=O)C(=O)c2cc(O)c(O)c(Cc3ccccc3)c2C1=O (racemic) | spleen shrinkage | B6 Bcl-2-transgenic mice | ip, 10 µmol/kg | baseline: maximum 50% | maximal activity | 77% |
| CC(C)[C@@H]1NC(=O)[C@H](Cc2ccccc2)NC(=O)[C@]2(CC[C@H](c3ccccc3)CC2)NC(=O)[C@@H](N)CSSC[C@@H](C(=O)N2CCC[C@H]2C(=O)N[C@@H](CCCNC(=N)N)C(=O)NCC(N)=O)NC(=O)[C@H](CC(N)=O)NC1=O | – | conscious male rat | subcutaneous, dose not given | baseline: AVP 465 IU/mg | antidiuretic activity | 15 IU/mg |
| CC(CCC(=O)NCc1ccc(C(=O)NO)cc1)C1CCC2C3C(O)CC4CC(O)CCC4(C)C3CCC12C (centres unmarked) | – | PCK rats | oral gavage, 15 mg/kg/day, 5 months | baseline: untreated | liver to body weight ratio | decreased |
